Results pooled from the literature.
± gives the spread as reported. ≈ marks a conversion by molar mass, not a printed value.

CCCCC1(CCCC)CN(c2ccccc2)c2cc(SC)c(OCC(=O)N[C@@H](C(=O)NCC(=O)O)c3ccccc3)cc2S(=O)(=O)C1 — serum LDL-C (refers to: LDL cholesterol; human, serum; 15 mg once daily, day 13): 75.4 mg/dL
CC[C@H](C)[C@H](NC(=O)[C@H](C)NC(=O)[C@H](CCCCN)NC(=O)[C@H](CC(C)C)NC(=O)[C@H](C)NC(=O)[C@@H](NC(=O)[C@H](Cc1c[nH]cn1)NC(=O)[C@H](CC(C)C)NC(=O)[C@@H](NC(=O)[C@@H](NC(=O)[C@H](CCCCN)NC(=O)[C@H](C)NC(=O)[C@H](C)NC(=O)[C@H](CO)NC(=O)[C@H](CCCCN)NC(=O)[C@H](Cc1ccccc1)NC(=O)[C@@H](NC(=O)[C@H](CCCCN)NC(=O)[C@H](CC(C)C)NC(=O)[C@H](Cc1ccccc1)NC(=O)[C@H](CO)NC(=O)[C@H](CCCCN)NC(=O)[C@H](Cc1c[nH]c2ccccc12)NC(=O)[C@H](CCCCN)NC(C)=O)[C@@H](C)O)[C@@H](C)O)C(C)C)[C@@H](C)O)C(=O)N[C@@H](CO)C(=O)N[C@@H](CO)C(N)=O — MIC geometric mean (Acinetobacter baumannii; IPM-S; 33 strains): 3.17 µg/mL (≈ 1.08 µM)
CN1C(=O)CN=C(c2ccccc2)c2cc(Cl)ccc21 — IC50 (rat central GABAA receptor, flunitrazepam site; radioligand binding): 0.019 µM
COc1cc(CCC[P+](c2ccccc2)(c2ccccc2)c2ccccc2)c(OC)c2c1OCO2.[I-] — LC50 (NCI-H460; SRB): -4.62 log M
O=c1c2cc(Cl)ccc2[nH]c(=S)n1Cc1ncc[nH]1 — MIC90 (Mycobacterium tuberculosis; PptT conditional knockdown): 33.4 µM (≈ 9.78 µg/mL)
CC[C@H](C)[C@@H]1NC(=O)[C@@H]2CCCN2C(=O)[C@H](CC(C)C)NC(=O)[C@H](CC(C)C)NC(=O)CNC(=O)[C@@H](NC(=O)[C@@H](NC(=O)[C@H](CC(=O)O)NC(=O)CNC(=O)[C@@H](NC(=O)[C@H](C)NC(=O)CNC(=O)[C@H](CCCCN)NC(=O)[C@H](CC(C)C)NC(=O)[C@H](CC(C)C)NC(=O)[C@H](CCCCN)NC(=O)CNC(=O)[C@@H](NC(=O)[C@@H](N)CC(C)C)C(C)C)C(C)C)C(C)C)CSSC[C@@H](C(=O)O)NC1=O — log2 fold change (RNA-seq, refers to: Slfn1 mRNA; mouse traumatic brain injury, frontal cortex and hippocampus; dose not given; baseline: TBI plus compound vs TBI): -3.23
COc1c(CCC[P+](c2ccccc2)(c2ccccc2)c2ccccc2)cc2c(c1OC)OCO2.[I-] — GI50 (SF-295; SRB): -5.58 log M
CC(/N=N/c1ccc(F)cc1)=C1SCCCS1 — viability reduction (Schistosoma mansoni; microscopic viability score; adult worms; 10 µM): 70%
Cc1cccc(NC(=O)c2sc3nc(-c4cccs4)cc(C(F)(F)F)c3c2N)c1 — IC50 (Mycobacterium tuberculosis; growth inhibition; H37Rv LepB under-expressing): > 100 µM
C[C@H](CCCC(C)(C)O)[C@H]1CC[C@H]2[C@@H]3CC=C4C[C@@H](O)CC[C@]4(C)[C@H]3CC[C@]12C — potentiation (NMDA receptor (rat); NMDA-evoked peak current, potentiator, whole-cell patch clamp; cultured hippocampal neurons; 0.1 µM, with: NMDA 10 µM): 9.9 ± 3.9%
COc1ccc(-c2cc(C(F)(F)F)c3c(N)c(C(=O)NC45CC6CC(CC(C6)C4)C5)sc3n2)cc1 — selectivity index (Mycobacterium tuberculosis; H37Rv wild type; baseline: HepG2 IC50 over M. tuberculosis IC90): > 91
CNC(=O)Oc1cccc2c1OC(C)(C)C2O (centres unmarked) — EC10 (SH-SY5Y; neurite outgrowth, inhibitor; 24 h, nominal concentration): 4.71 µM
O=C(Nc1cccnn1)N1CCN([C@@H]2CCOc3cc(C(F)(F)F)ccc32)CC1 — inhibition (L-type calcium channel, diltiazem site; binding; 20 µM): 28%
CCCCCn1cc(C(=O)C2C(C)(C)C2(C)C)c2ccccc21 — ED50 (antinociception, tail withdrawal warm water; ICR mouse male; intravenous): 2.6 µmol/kg
COc1ccc(-n2nc(C(C)=O)s/c2=N\N=C(/C)c2ccc(NC(C)=O)cc2)cc1 — viability (HepG2; 1.25 µM): 5.18%
Nc1c(C(=O)Nc2ccccc2F)sc2nc(-c3ccccc3)cc(C(F)(F)F)c12 — IC50 (Mycobacterium tuberculosis; growth inhibition; H37Rv LepB under-expressing): > 100 µM
CCCCN1CCCC[C@H]1C(=O)Nc1c(C)cccc1C — Kd (sodium channel (rat); peak sodium current, blocker, whole-cell patch clamp; GH3; tonic block): 107 ± 10 µM
Clc1ccc(-c2cc(Cl)ccc2Cl)cc1 — IC50 (gap junction, rat; gap junctional communication, scrape loading dye transfer; WB-F344 rat liver epithelial; 1 h): 21 µM
COc1ccc(-c2cc(C(F)(F)F)c3c(N)c(C(=O)N4CC5(CCOC5)C4)sc3n2)cc1 — IC90 (Mycobacterium tuberculosis; H37Rv wild type; 120 h): inactive
CCOC(=O)c1nn(Cc2ccccn2)c(C)c1C(=O)NC1CCC(C(F)(F)F)CC1 (centres unmarked) — viability reduction (Schistosoma mansoni; microscopic viability scoring; newly transformed schistosomula; 10 µM, 72 h, prescreen): 10.7%
